Measurements of several laboratories.
Every numbered part comes from another study and shows a few of its results, in no order. Substitutions count along the parent as printed.

Sample 1 — target: CCNA1, cyclin fold, Cln2 fusion (human); technique: yeast growth competition, sequencing; sample: yeast; setting: strong parent motif; baseline: not given; reading: higher = stronger binding
Starting sequence: E2F1 docking peptide (human); PPVKRRLDFETDH
Substitution | normalised enrichment score
E10C | 1.85
R5N | 0.608
K4Q | 1.63
D8W | 1.24
D12N | 1.88
D12F | 1.93
E10K | 1.49
R6Y | 0.693
T11S | 1.98
D8C | 1.51
L7I | 0.938
T11Y | 1.65
D8K | 1.26
E10F | 1.32
D12M | 2.07
D8Q | 1.35
R6L | 0.481
R5S | -0.287
V3G | 0.548
R6Q | 1.3
D8H | 1.27
R5Q | 0.424
E10R | 1.33
K4W | 0.82
D12K | 1.54

Sample 2 — technique: DHFR PCA, deep sequencing; sample: yeast; with: (+)-ABA 0.0091 µM; baseline: wild-type fitted maximum; reading: higher = stronger binding
Target: ABI1, truncated, D143A, DHFR fusion (Arabidopsis thaliana)
Setting: methotrexate growth selection, single substitutions
Starting sequence: PYL1, truncated, DHFR fusion (Arabidopsis thaliana); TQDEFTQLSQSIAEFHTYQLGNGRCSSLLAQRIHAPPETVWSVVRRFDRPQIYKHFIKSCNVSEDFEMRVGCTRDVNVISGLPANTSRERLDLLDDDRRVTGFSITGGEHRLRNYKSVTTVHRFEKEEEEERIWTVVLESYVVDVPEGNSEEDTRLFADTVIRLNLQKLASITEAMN; partner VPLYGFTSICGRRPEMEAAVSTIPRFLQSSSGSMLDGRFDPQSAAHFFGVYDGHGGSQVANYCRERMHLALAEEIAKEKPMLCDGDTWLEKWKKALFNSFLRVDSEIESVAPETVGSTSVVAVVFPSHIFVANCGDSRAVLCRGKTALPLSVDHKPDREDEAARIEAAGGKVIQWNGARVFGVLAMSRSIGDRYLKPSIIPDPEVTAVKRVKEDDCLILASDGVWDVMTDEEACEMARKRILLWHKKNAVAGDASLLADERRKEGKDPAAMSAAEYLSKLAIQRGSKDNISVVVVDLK
Substitution | relative binding score [%]
L82T | 10.8
N149G | 58.1
F66W | 15.4
R24F | -0.686
E109Q | 2.61
I105L | -0.385
S80L | 44.2
S87Q | 58.6
Q19C | 6.75
S140C | 5.79
I105G | 0.461
H122E | -9.97
S80R | 5.86
L169I | -2.04
G102M | -1.49
Q31L | 6.18
F15T | -1.46
S26W | 2.19
R45Q | 4.57
R49P | 3.26
Q167M | 19.4
Y115T | 5.18
D92H | -5.95
R123W | -5.29
S59P | 3.61

Sample 3 — technique: Sort-seq; refers to: YFP reporter; sample: E. coli; setting: PhoQ-PhoP variant library; with: 10 µM Mg2+; baseline: high Mg2+ state; reading: higher = stronger signaling
Molecule: PhoQ, residues 284 288 289 292 302 303 SSCLAV
target | fold induction
PhoP, residues 12 14 15 18 19 LHHYF (Escherichia coli, UniProt P23836) | 6.93
PhoP, residues 12 14 15 18 19 TPWTL (Escherichia coli, UniProt P23836) | 1.84
PhoP, residues 12 14 15 18 19 VGHWL (Escherichia coli, UniProt P23836) | 7.82
PhoP, residues 12 14 15 18 19 NFFVT (Escherichia coli, UniProt P23836) | 14.8

Sample 4 — technique: protein-binding microarray; form: double-stranded DNA, one strand shown; sample: in vitro; concentration: 250 nM; setting: 60-bp whole probe; with: salmon DNA 0.4 mg/ml; baseline: random background probes; reading: higher = stronger binding; all sequences stand within: GCCTAGCAC … GTCTTGATTCGCTTGACGCTGCTG
Target: Interferon regulatory factor 5, full length, phosphomimetic (IRF5, Homo sapiens, UniProt Q13568-2, residues 1-514, K96S/S451D/S453D/S456D/S462D)
Oligonucleotide | log fluorescence
GACGGACTGGACGATCGGGACGTGCTA | -0.47 z-score
TTAGGTTTCCTTATCCTATAGTGCTAG | 0.955 z-score
GACGGTATCGACACTTGGGACGTGCTA | 1.53 z-score
GTCGGACTGGACTTTCGGGACGTGCTA | 4.54 z-score
CTGGAGGTTGGGCAAGGCCCGTGCTAG | -0.76 z-score
TCACTTATCCCTAATCTCACTGTGCTA | 0.693 z-score
TCATTTACCCATCTCCAACTGTGCTAG | 0.4 z-score
TCAATATCCATTATAGAACTGTGCTAG | 0.704 z-score
TTAGAACTGGGGTCTCGATTAGTGCTA | -0.0584 z-score
TTAGGTATCGGATATCGGTTAGTGCTA | 4.86 z-score
TTAGGTTTCGGTATCGGCTAGTGCTAG | 10.8 z-score
TTAGGTTTCCTTTTCCTTTTGTGCTAG | 2 z-score
TTAGGTATCGGGTTTCGGATAGTGCTA | 5.81 z-score
TTAGGTCTCGATTTCGGTTAGTGCTAG | 5.43 z-score
CTTTCTATCTCTGTTTTTGCGTGCTAG | 3.37 z-score
TTAGAACTGAGACTGGTTTAGTGCTAG | -0.173 z-score
TTATATATCAGTTTCGATTAGTGCTAG | 9.8 z-score
TCATAATTCCTGCCTGAGACTGTGCTA | 0.481 z-score
GACGGTATCTGTTTCGGGACGTGCTAG | 4.24 z-score
ATTGCTTTCTCTTTCACTGCGTGCTAG | 6.81 z-score
GACGGTATCGTACTGGGGACGTGCTAG | 0.492 z-score
TAAGAAAAGCCACCAGGACCGTGCTAG | -0.391 z-score
GACGGACTGCTGATCCTGACGTGCTAG | -0.554 z-score
TATAGAGTAGTTTTTCAACCAGTGCTA | 0.335 z-score
TCTCCTCCAGGTTCTCTGACAGTGCTA | -0.0561 z-score

Sample 5 — technique: RNA Bind-n-Seq; form: RNA; sample: in vitro; concentration: not given; baseline: input RNA pool; reading: higher = stronger binding
Target: RING finger protein unkempt homolog, zinc fingers 1-6, GST-SBP tag (UNK, Homo sapiens, UniProt Q9C0B0, residues 30-357)
Setting: RNA with constant flanks, human-mouse chimeric sites, ends assumed
All sequences stand within: GGGAGUUCUACAGUCCGACGAUC … CAACAGAGGAUUGAGCAUCA
Construct (chain): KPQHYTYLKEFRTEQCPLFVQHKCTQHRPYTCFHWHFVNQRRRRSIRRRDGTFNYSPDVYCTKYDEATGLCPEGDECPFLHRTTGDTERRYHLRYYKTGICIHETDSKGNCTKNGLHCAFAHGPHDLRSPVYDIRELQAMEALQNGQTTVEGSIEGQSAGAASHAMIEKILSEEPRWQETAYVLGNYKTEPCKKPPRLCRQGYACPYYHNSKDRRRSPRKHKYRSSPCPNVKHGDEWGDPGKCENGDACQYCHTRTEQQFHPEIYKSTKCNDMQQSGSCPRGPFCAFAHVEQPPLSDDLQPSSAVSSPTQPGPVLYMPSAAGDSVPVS
Oligonucleotide | bound/input enrichment
AAAGUGGACUAUGGCGAGUACAUGGAUAAAAACAAUGUGAGGCGGCAAGCAACAACAAUCAUAGCUGAUAACAUUAUAUUUCUGAGUGACCAGACGAAAGAGAAGGAAUAGAACGGAUGA | 2.4 ratio
CACAGAGGAGAUCUGCUGUUCCUCACGAAUUUCCGGGAAGACCCAAUCAGAGCUGGUGAAAUAGUUGUUUUUAAGGUUGAAGGACGAGACAUUCCGAUAGUUCACAGAGUAAUCAAGGUU | 1.92 ratio
AACAUUUUGUCAAAUUGUUAUGUUCCUGUGAAACAAGUGAACACUCUGAUACACUUCAUCUGCUUGUACAUCUGUAUGAUAGAGAAAUGUAAAUAUGAAUAUAUUUACAAUGUGUCACUU | 0.112 ratio
GGCCUGGGACCGUCCUGGGCUAGUACAAUAGCGGCAGGUGGAGGCUCGAGAGGAAAGUUUGUUAGUGGAGGCAGUGGAGAGGUCGUCCAUGUACGGUCCUUUACUCGAUAGAUGUGUUCU | 0.566 ratio
CGCUUGGAUGAGGCUGGUGUUACUGAUGAAGUGCUAGAUUCUGCCAUGCAAGCCUUCCUUCUGGAGGUCAUUGUUAAACAUGGGGAGCCGGCACCUUAUUUAUGUAACAAAGAUCCGUUU | 0.0933 ratio
GCAAAGGAUGAUGAGGCGGCAGCUGUUGCCCUUUCCUCCCUGAUUCAUGCUUUGGAUGAGUUAAACAUGGUCGCCAUAGUUCGAUAUGCUUAUGACAAAAGAUCUAAUCCUCAAGUUGGU | 0.418 ratio
ACCAUUUUCGCGGUUCAGGCUUUGUGUGUAGUUCACUCUAUGUAUUAAAUUAUUAUUGCCCUUAGUUUAUAAUAAGGAUAAUUGCAUUUAAAGAGGUUACUGAAUGUUACUCUGAAACUU | 1.01 ratio
AUGGAACAUUUCGAUGCGUCACUCAGUACCUAUUUCAAGGCCUUCCUGGGCCCCCGAGAUACAAGAGUCAAAGGAUGGUUUCUUCUGGACAAUUACAUCCCUACGUUUGUCUGUUCUGUU | 0.0984 ratio
GCUCCUCCCCGCUCUGCAGCCUGGGGACACUGGGCUGGGACCAGAAUCCAGCUUUCUUUUAAAACUCUAUAUUUUUUUGUAUCCCGUGACAUUUCAUUUUUUUUAAAUAGUGUAUUUUUU | 16.3 ratio
UCCCAAAUCCAGCAGCUAGAAGGAGCCUUGAGACAAACACUCCACACACAGGGAAGGCGAUAACAUUGUAAAUUGGUUUACAUUUUUCUCCUUGAAUGAUUUUUCUAGAGGUCAUAGUGC | 0.446 ratio
AGAGAAAUGAGAAAGAAUCUCACACAAGAAGAGAUGCAAAGAAUGUCUACUAGAGUCCUUUUGGCGACUCUUUCCAUCCCUAUUACUCCUGAGCGAACUGAUAUUGCUCGACUUUUGGAU | 0.101 ratio

Excerpt of the above (sample 5):
Oligonucleotide | bound/input enrichment
AAAGUGGACUAUGGCGAGUACAUGGAUAAAAACAAUGUGAGGCGGCAAGCAACAACAAUCAUAGCUGAUAACAUUAUAUUUCUGAGUGACCAGACGAAAGAGAAGGAAUAGAACGGAUGA | 2.4 ratio
CACAGAGGAGAUCUGCUGUUCCUCACGAAUUUCCGGGAAGACCCAAUCAGAGCUGGUGAAAUAGUUGUUUUUAAGGUUGAAGGACGAGACAUUCCGAUAGUUCACAGAGUAAUCAAGGUU | 1.92 ratio
AACAUUUUGUCAAAUUGUUAUGUUCCUGUGAAACAAGUGAACACUCUGAUACACUUCAUCUGCUUGUACAUCUGUAUGAUAGAGAAAUGUAAAUAUGAAUAUAUUUACAAUGUGUCACUU | 0.112 ratio
GGCCUGGGACCGUCCUGGGCUAGUACAAUAGCGGCAGGUGGAGGCUCGAGAGGAAAGUUUGUUAGUGGAGGCAGUGGAGAGGUCGUCCAUGUACGGUCCUUUACUCGAUAGAUGUGUUCU | 0.566 ratio
CGCUUGGAUGAGGCUGGUGUUACUGAUGAAGUGCUAGAUUCUGCCAUGCAAGCCUUCCUUCUGGAGGUCAUUGUUAAACAUGGGGAGCCGGCACCUUAUUUAUGUAACAAAGAUCCGUUU | 0.0933 ratio
GCAAAGGAUGAUGAGGCGGCAGCUGUUGCCCUUUCCUCCCUGAUUCAUGCUUUGGAUGAGUUAAACAUGGUCGCCAUAGUUCGAUAUGCUUAUGACAAAAGAUCUAAUCCUCAAGUUGGU | 0.418 ratio
ACCAUUUUCGCGGUUCAGGCUUUGUGUGUAGUUCACUCUAUGUAUUAAAUUAUUAUUGCCCUUAGUUUAUAAUAAGGAUAAUUGCAUUUAAAGAGGUUACUGAAUGUUACUCUGAAACUU | 1.01 ratio
AUGGAACAUUUCGAUGCGUCACUCAGUACCUAUUUCAAGGCCUUCCUGGGCCCCCGAGAUACAAGAGUCAAAGGAUGGUUUCUUCUGGACAAUUACAUCCCUACGUUUGUCUGUUCUGUU | 0.0984 ratio
GCUCCUCCCCGCUCUGCAGCCUGGGGACACUGGGCUGGGACCAGAAUCCAGCUUUCUUUUAAAACUCUAUAUUUUUUUGUAUCCCGUGACAUUUCAUUUUUUUUAAAUAGUGUAUUUUUU | 16.3 ratio
